Results pooled from the literature.
A part holds a random share of what one study measured. Changes are numbered by the printed parent chain.

Block 1
Target: Interferon regulatory factor 7, full length, phosphomimetic (IRF7, Homo sapiens, UniProt Q92985, residues 1-503, S101K/S471D/S472D/S475D/S476D/S477D/S483D/S484D/S487D)
Method: protein-binding microarray
Form: double-stranded DNA, one strand shown
Matrix: in vitro
Concentration: 250 nM
Setting: 60-bp whole probe
With: salmon DNA 0.4 mg/ml
Baseline: random background probes
Direction: higher = stronger binding
Endpoint: log fluorescence
Shared flanks, not repeated: GCCTAGCAC … GTCTTGATTCGCTTGACGCTGCTG
Construct (chain): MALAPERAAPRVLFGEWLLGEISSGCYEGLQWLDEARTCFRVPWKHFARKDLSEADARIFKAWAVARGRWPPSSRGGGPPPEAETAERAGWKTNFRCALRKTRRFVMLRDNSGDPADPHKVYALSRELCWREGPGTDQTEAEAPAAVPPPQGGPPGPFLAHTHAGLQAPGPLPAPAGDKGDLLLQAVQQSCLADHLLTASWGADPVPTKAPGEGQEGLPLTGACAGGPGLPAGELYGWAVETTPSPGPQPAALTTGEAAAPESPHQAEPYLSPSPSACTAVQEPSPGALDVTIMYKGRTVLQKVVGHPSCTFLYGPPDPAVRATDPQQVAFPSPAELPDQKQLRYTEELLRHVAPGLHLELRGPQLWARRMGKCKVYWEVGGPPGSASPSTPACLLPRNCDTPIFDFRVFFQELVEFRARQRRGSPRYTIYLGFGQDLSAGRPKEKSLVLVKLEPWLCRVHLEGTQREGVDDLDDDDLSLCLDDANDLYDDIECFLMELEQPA
TCAAGTCTCAACCCCCAAACTGTGCTA: -0.187 z-score
TCATTTTTATCAATCATACTGTGCTAG: 0.876 z-score
GACGATATCAGTTTCGAGATGTGCTAG: 5.41 z-score
GACGGACTTGACTTTCGGGACGTGCTA: -0.0478 z-score
GACGGATTGGACTTTCGGGACGTGCTA: -0.21 z-score
TTAGGTCTCCTTTTCCTTAAGTGCTAG: 2.68 z-score
AAGTGTATATACTATATGCATGTGCTA: -0.25 z-score
AGTATGTTCACTATTTAAGAGTGCTAG: 0.328 z-score
GCAAATATATCAGTGAATTTGTGCTAG: 0.0223 z-score

Block 2
Target: ABI1, truncated, D143A, DHFR fusion (Arabidopsis thaliana)
Method: DHFR PCA, deep sequencing
Matrix: yeast
Setting: methotrexate growth selection, single substitutions
With: (+)-ABA 0.39 µM
Baseline: wild-type fitted maximum
Direction: higher = stronger binding
Endpoint: relative binding score
Parent: PYL1, truncated, DHFR fusion (Arabidopsis thaliana); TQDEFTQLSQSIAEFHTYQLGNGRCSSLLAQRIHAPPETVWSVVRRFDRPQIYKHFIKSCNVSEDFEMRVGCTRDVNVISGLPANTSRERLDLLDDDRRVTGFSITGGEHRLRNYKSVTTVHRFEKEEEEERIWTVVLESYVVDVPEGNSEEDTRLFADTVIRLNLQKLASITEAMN
Y53D: -7.28%
K54W: -4.03%
T120M: -4.27%
L112H: -23.2%
L20C: 51.1%
N77C: 58.3%
I172F: -10.7%

Block 3
Target: Histone acetyltransferase KAT6A, both winged helices, GST fusion (KAT6A, Homo sapiens, UniProt Q92794, residues 1-181)
Method: protein binding microarray
Form: double-stranded DNA, one strand shown
Matrix: in vitro
Concentration: not given
Setting: 8-mer, flanks averaged, mean of 2 arrays, mostly near background
Baseline: not given
Direction: higher = stronger binding
Endpoint: E-score
Target sequence (chain): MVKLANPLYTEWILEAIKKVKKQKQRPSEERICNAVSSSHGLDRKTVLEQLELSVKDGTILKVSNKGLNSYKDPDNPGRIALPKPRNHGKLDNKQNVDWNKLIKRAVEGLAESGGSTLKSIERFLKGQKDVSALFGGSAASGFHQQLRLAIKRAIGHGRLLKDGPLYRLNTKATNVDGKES
CTCTTTAA: -0.169
GCGCCGAA: 0.321
CTCTCCTA: -0.166
ATCACGTC: -0.0653
ATACCATA: -0.0561
GATGGCAA: 0.00668
ATTAACTG: -0.121
CGCCAAAA: 0.219
TAGTCGAA: -0.0395
CGAAAGAG: -0.114

Single results of other studies
PhoQ, residues 284 288 289 292 302 303 QWGLFV  fold induction (PhoP, residues 12 14 15 18 19 TPWLV (Escherichia coli, UniProt P23836); Sort-seq, refers to: YFP reporter; E. coli; PhoQ-PhoP variant library, with: 10 µM Mg2+; baseline: high Mg2+ state, higher = stronger signaling): 0.617
